Published values gathered from unrelated publications.
Each numbered part is a random draw from the data of one study; scales do not carry over between parts. Positions count from the first letter of the parent shown.

Set 1
Target: CCNB1, cyclin fold, Cln2 fusion (human)
Method: yeast growth competition, sequencing
Medium: yeast
Setting: weak parent motif
Relative to: not given
Direction: higher = stronger binding
Endpoint: normalised enrichment score
Parent: RB1 docking peptide (human); PKPLKKLRFDIEG
PKPLKKLRFDIER [G13R]: 1.11
PKPLKWLRFDIEG [K6W]: 0.375
PCPLKKLRFDIEG [K2C]: 0.555
PKILKKLRFDIEG [P3I]: 0.618
PKPLKKQRFDIEG [L7Q]: 0.417
PKPLKKLRFDIEM [G13M]: 0.446
PKTLKKLRFDIEG [P3T]: 0.304
PKPLKKLRLDIEG [F9L]: 0.475
PKPLKKLRFDISG [E12S]: -0.0312
PKPLKKLRFDING [E12N]: 0.408
VKPLKKLRFDIEG [P1V]: 0.947
PKPLKTLRFDIEG [K6T]: 0.444
PKFLKKLRFDIEG [P3F]: -0.246

Set 2
Target: Ras GTPase-activating protein-binding protein 1, C-terminal RGG region (G3BP1, Homo sapiens, UniProt Q13283)
UniProt Q13283, sequence (whole entry, looked up): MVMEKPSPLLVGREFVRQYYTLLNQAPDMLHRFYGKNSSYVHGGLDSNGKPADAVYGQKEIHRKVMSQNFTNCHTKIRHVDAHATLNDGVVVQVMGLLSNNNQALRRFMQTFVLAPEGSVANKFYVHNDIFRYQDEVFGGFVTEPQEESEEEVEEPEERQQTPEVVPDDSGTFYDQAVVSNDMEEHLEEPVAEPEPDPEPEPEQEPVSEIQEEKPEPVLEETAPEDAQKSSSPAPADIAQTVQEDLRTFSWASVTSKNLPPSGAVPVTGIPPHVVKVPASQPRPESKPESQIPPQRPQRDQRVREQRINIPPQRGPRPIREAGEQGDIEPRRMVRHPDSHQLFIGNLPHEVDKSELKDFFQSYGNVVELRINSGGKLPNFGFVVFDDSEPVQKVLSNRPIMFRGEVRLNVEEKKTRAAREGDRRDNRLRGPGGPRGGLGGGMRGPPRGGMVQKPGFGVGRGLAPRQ
Method: RNA Bind-n-Seq
Molecule type: RNA
Medium: in vitro
Concentration: 1 µM
Setting: whole 134-nt RNA, ends assumed
Added: 150 mM KCl
Relative to: input library
Direction: higher = stronger binding
Endpoint: log2 enrichment
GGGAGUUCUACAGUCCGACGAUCCAAGUCCUGUGCUACACAUCGUAUGUACCGAAUCGGGUUUGGGGUUUGGUUUGGGGAAAGUAUUAUGUUACGCCGUUCGGAUCUGCACUUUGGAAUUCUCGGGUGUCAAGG: -0.343
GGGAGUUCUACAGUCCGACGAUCGUCCUGUGCUACACAUCGUAUGUACCGAAUCGGGUUUUUUGGGUUUUUUGGUUUUUUGGAAAGUAUUAUGUUACGCCGUUCGGAUCUGCAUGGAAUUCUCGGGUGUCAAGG: -1.5
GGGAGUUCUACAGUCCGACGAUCCUCAAGUCCUGUGCUACACAUCGUAUGUACCGAAUCGGAAAGGUUUGGUUUGGAAAGUAUUAUGUUACGCCGUUCGGAUCUGCACUUCCAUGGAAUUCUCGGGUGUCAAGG: -1.38
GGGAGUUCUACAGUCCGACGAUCUGGGAGGUGGAUUAUGUUUAUUUUUUUAGCUCAUUUCCAGGGGUGGGAAUUUUUUUUUAAUAUGUGUCAUGAAUAAAGUUGUUUUUGAAAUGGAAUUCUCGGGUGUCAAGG: 2.91
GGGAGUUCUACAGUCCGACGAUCCUCAAGUCCUGUGCUACACAUCGUAUGUACCGAAUCGGCCCGGCCCGGGCCCGGAAAGUAUUAUGUUACGCCGUUCGGAUCUGCACUUCCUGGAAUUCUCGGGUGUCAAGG: -1.6
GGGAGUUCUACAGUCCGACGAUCGUCCUGUGCUACACAUCGUAUGUACCGAAUCGGGGUUUUUUUGGGGAGGGGAAAGGGGAAAGUAUUAUGUUACGCCGUUCGGAUCUGCACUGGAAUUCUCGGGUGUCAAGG: 2.56
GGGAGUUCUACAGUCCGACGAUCUCAAGUCCUGUGCUACACAUCGUAUGUACCGAAUCGGGGUUUGGGUUUGGUUUGGAAAGUAUUAUGUUACGCCGUUCGGAUCUGCACUUCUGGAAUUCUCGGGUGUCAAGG: -0.821
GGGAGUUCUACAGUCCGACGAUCCAGCAGCAGAGUGAGUGGAUUUUAUUUUUCGUUAUUGUUGGUGGUUUAAAAAAUUCCCCCCAUGUAAUUAUUGUGAACACCUUGCUUUGUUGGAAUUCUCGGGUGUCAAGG: -0.906
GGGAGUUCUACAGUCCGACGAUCGCAGGAAGUAAAAACAAAUGGAAAUGCUUCGCAUAGUGGCAGGGGUGGGGGUUGCUAAGGAAAGGGUGGGAUGGGAGUGGGUAAAGAGUUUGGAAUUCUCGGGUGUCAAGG: 1.97

Set 3
Target: Interferon regulatory factor 5, full length, phosphomimetic (IRF5, Homo sapiens, UniProt Q13568-2, residues 1-514, S451D/S453D/S456D/S462D)
Method: protein-binding microarray
Molecule type: double-stranded DNA, one strand shown
Medium: in vitro
Concentration: 940 nM top
Setting: 60-bp whole probe
Added: salmon DNA 0.4 mg/ml
Relative to: random background probes
Direction: higher = stronger binding
Endpoint: fitted relative affinity
Constant ends, left off below: GCCTAGCAC … GTCTTGATTCGCTTGACGCTGCTG
TTAGGTTTCCTTATCCTTTTGTGCTAG: 1.88 z-score
GACGGACTGGACTGTCGGGACGTGCTA: -0.585 z-score
TTAGATGTCAGTTTCGATTAGTGCTAG: 7.56 z-score
AGAGTCACCCATCTCAGCAAGTGCTAG: -0.221 z-score
GACGGACTGGACACTGGAGACGTGCTA: -0.661 z-score
TTAGGACTGTGTTTCGGTTAGTGCTAG: 2.98 z-score
GACGGTATCCTACTGCTGTCGTGCTAG: 0.407 z-score
TTAGGGATCCTACTGCTTTAGTGCTAG: -0.34 z-score
GACGGTTTCGGGACTGGGGGCGTGCTA: 8.93 z-score
TTAGAACTGAGACTGGTTTAGTGCTAG: -0.225 z-score
TTAGGTTTCGGGTATCAGTTAGTGCTA: 10.9 z-score
TTAGATTTCAGTACCGATTAGTGCTAG: 0.746 z-score
AGTTTATTTATTTTTACATTGTGCTAG: 0.816 z-score
TCAATTCTGAAAATGGAACTGTGCTAG: 0.0423 z-score
TTAGCTTTCGGGTTTCGATTAGTGCTA: 6.59 z-score
TGCTGTGTGCATCTATCTTAGTGCTAG: -0.342 z-score

Mixed results
PhoQ, residues 284 288 289 292 302 303 SACGEM — fold induction (PhoP, residues 12 14 15 18 19 AQALL (Escherichia coli, UniProt P23836); Sort-seq, measured: YFP reporter; E. coli; PhoQ-PhoP variant library, added: 10 µM Mg2+; relative to: high Mg2+ state, higher = stronger signaling): 2.09

Some of these lines once more (set 2):
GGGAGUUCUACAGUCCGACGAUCCUCAAGUCCUGUGCUACACAUCGUAUGUACCGAAUCGGCCCGGCCCGGGCCCGGAAAGUAUUAUGUUACGCCGUUCGGAUCUGCACUUCCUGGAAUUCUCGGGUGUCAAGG: -1.6
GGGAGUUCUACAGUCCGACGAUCGUCCUGUGCUACACAUCGUAUGUACCGAAUCGGGUUUUUUGGGUUUUUUGGUUUUUUGGAAAGUAUUAUGUUACGCCGUUCGGAUCUGCAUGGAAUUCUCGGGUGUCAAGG: -1.5
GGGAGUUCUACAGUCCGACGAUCCAAGUCCUGUGCUACACAUCGUAUGUACCGAAUCGGGUUUGGGGUUUGGUUUGGGGAAAGUAUUAUGUUACGCCGUUCGGAUCUGCACUUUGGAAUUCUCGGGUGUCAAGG: -0.343
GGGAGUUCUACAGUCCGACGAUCCUCAAGUCCUGUGCUACACAUCGUAUGUACCGAAUCGGAAAGGUUUGGUUUGGAAAGUAUUAUGUUACGCCGUUCGGAUCUGCACUUCCAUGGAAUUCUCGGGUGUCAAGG: -1.38
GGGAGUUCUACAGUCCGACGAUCGUCCUGUGCUACACAUCGUAUGUACCGAAUCGGGGUUUUUUUGGGGAGGGGAAAGGGGAAAGUAUUAUGUUACGCCGUUCGGAUCUGCACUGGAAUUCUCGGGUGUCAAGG: 2.56
